Assay results pooled from the literature.
Numbered parts are unrelated; each lists some results of a single study. Substitutions count along the parent as printed.

Block 1
Target: Protein max, full length (MAX, Homo sapiens, UniProt P61244-2, residues 1-151)
Method: protein-binding microarray
Molecule type: double-stranded DNA, one strand shown
Medium: in vitro
Tested at: not given
Notes: k-mer, scored over probes, only values ≥0.25
Direction: higher = stronger binding
Strand | E-score
CGCTCACA | 0.25
ATGTGCCC | 0.369
CGTGGGAC | 0.415
CATTCACG | 0.251
ACGTTGCC | 0.333
GTGACGCA | 0.275
GCCCACGA | 0.301
GACACGCC | 0.364
CATGCACC | 0.377
CCCACGAG | 0.415
ATTCCATG | 0.293
CGTGATTC | 0.39
ATGCAACG | 0.272
GACCCGCC | 0.275
CCTCCCAC | 0.268
AGCATGGG | 0.407
CATGCACA | 0.437
CGGTCACA | 0.288
CAATGTGG | 0.362
CACCTGAC | 0.36

Block 2
Target: CCNF, cyclin fold, Cln2 fusion (human)
Method: yeast growth competition, sequencing
Medium: yeast
Notes: strong parent motif
Reference: not given
Direction: higher = stronger binding
Parent: PKN2 docking peptide (human); VSAVRKLDFSDTM
Variant | normalised enrichment score
VWAVRKLDFSDTM [S2W] | 7.1
VKAVRKLDFSDTM [S2K] | 7.54
VSAVRKDDFSDTM [L7D] | -0.588
VSAVRKLDFSDIM [T12I] | 7.28
VSIVRKLDFSDTM [A3I] | 6.94
VSAVRKLDFSDKM [T12K] | 7.45
VSAVRKLDFSDSM [T12S] | 6.97
VSDVRKLDFSDTM [A3D] | 0.252
VSAVRALDFSDTM [K6A] | 6.66
VSAVRKLDFSLTM [D11L] | 7.37
VSAVCKLDFSDTM [R5C] | 2.48
VSAVRKLDFSGTM [D11G] | 7.29
VSAVRKLDFFDTM [S10F] | 7.07
VMAVRKLDFSDTM [S2M] | 7.28
VSAVRKLDFIDTM [S10I] | 6.44
VFAVRKLDFSDTM [S2F] | 6.9
VSAVRKLDHSDTM [F9H] | 0.285
VSAVRKLPFSDTM [D8P] | 4.94

Block 3
Target: Sal-like protein 4, full length isoform B (SALL4, Homo sapiens, UniProt Q9UJQ4-2, residues 1-616)
Method: universal PBM
Molecule type: double-stranded DNA, one strand shown
Medium: in vitro
Tested at: not given
Notes: 8-mer, flanks averaged, mean of replicates
Direction: higher = stronger binding
Target sequence (chain): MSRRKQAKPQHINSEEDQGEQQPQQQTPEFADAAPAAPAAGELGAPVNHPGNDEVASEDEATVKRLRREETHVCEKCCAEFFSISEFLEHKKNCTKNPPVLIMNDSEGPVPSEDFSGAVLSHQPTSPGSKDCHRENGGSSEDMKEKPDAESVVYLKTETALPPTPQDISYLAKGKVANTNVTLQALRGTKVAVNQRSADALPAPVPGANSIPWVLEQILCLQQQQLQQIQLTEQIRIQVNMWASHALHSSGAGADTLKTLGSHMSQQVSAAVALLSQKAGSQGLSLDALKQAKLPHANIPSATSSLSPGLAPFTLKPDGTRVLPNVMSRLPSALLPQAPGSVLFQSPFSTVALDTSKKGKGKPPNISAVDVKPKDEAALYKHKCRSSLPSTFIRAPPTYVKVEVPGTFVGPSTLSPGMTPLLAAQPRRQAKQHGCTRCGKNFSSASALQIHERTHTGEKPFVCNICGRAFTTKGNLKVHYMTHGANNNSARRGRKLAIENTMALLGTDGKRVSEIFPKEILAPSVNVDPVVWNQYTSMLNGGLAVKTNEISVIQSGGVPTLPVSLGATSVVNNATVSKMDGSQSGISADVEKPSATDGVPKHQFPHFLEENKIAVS
Strand | E-score
AAATCCCC | -0.186
AAAACGTC | 0.139
CCTCAAAG | -0.0623
CAGAGTCC | -0.0974
ATCTGGCG | -0.0423
CTCATCGA | -0.0294
AGATGGCT | 0.0486
CTAAGTTC | -0.233
CTTCCAAC | -0.178
GTCGGATA | -0.00514
TCCATGAA | 0.246
AATCATCC | 0.0052
CCGACCCG | -0.33
ACTTGGAC | -0.103
CCATTCAG | 0.0676
ATCCAATA | 0.27
AAGACACT | 0.048
CCGGGGGC | -0.37
ACCTCTCA | -0.165
ACATCTGA | 0.0674
ACTGCGGA | -0.201
CGCAGTGA | -0.0818
CCAACGGG | -0.338
AAGCCACG | -0.204
AACACAAT | 0.26

Block 4
Target: Phosphate system positive regulatory protein PHO4, full length, GST-tagged (PHO4, Saccharomyces cerevisiae, UniProt P07270, residues 1-312)
Method: competition protein-binding microarray
Molecule type: double-stranded DNA, one strand shown
Medium: in vitro
Tested at: 2 µM
Notes: whole 60-bp probe, lowest competitor level
Added: Cbf1 competitor, 0.05 µM
Direction: higher = stronger binding
Shared flanks, not repeated: … GTCTTGATTCGCTTGACGCTGCTG
Residues (chain): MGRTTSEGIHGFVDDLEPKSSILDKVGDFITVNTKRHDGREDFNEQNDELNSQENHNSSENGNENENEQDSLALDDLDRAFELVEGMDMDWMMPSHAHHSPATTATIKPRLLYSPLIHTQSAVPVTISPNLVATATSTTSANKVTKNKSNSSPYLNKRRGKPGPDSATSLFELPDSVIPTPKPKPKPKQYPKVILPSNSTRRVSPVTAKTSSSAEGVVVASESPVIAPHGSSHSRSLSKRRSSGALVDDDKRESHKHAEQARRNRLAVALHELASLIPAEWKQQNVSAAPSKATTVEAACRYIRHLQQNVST
Strand | fluorescence intensity [a.u.]
CTTCTGTAAATTTGTGTTGTGGGTGGACGCGCCCCG | 4520
CTCCCTCTGTGCGGCCACGTGGGACTCGTCGTCTTG | 17700
TTCAGGGTTGTTCATCACAGCAATAAAAGTATCAAC | 3430
TTGAACTGCTGGGATCGGATGACGTTTTGGAGGAAG | 3690
ATAATCTTCTCAGGACACGTAATCTTCTGATCCAGA | 4780
CATACCCAACCTTGACACGTGGGTGAAGATATTTGT | 19200
CGGGGTTAAGTTTGTCACGATACTTGCTTGCAGCAG | 5820
CTAACGAAGGTTTGTTTGGTGGGTGACAAGCCAAGT | 3310
TGAAGAGTGTTGTTTCATGTGACAGTGAATGCCATT | 5000
TCCTTATCTATAGGACACGCTGTTATTTTAGTTCAA | 7360
GTCTTGTCTCATTGTCGTGTGGGTGTCCCCACTTCA | 6310
CCCTTGCATCGCTGCCGTGTGGCGCGACCCACTGCG | 5310
TTGTCTGTGCATTGGCATGCGCAAGCATTCGATGAA | 7170
AGATTTATGGCTTTCCATGTGGTTAAAGAAAAATTG | 7920
AAATTACTAAGTTTTCACGTGCTATACCCCGTATGA | 15000
CCGATTGATAACCATCACGCAAAAAAAAAAGATGAT | 5130

Excerpt of the above (block 4):
Strand | fluorescence intensity [a.u.]
AAATTACTAAGTTTTCACGTGCTATACCCCGTATGA | 15000
TGAAGAGTGTTGTTTCATGTGACAGTGAATGCCATT | 5000
CTCCCTCTGTGCGGCCACGTGGGACTCGTCGTCTTG | 17700
CTTCTGTAAATTTGTGTTGTGGGTGGACGCGCCCCG | 4520
CTAACGAAGGTTTGTTTGGTGGGTGACAAGCCAAGT | 3310
AGATTTATGGCTTTCCATGTGGTTAAAGAAAAATTG | 7920
ATAATCTTCTCAGGACACGTAATCTTCTGATCCAGA | 4780
CGGGGTTAAGTTTGTCACGATACTTGCTTGCAGCAG | 5820
TTCAGGGTTGTTCATCACAGCAATAAAAGTATCAAC | 3430
GTCTTGTCTCATTGTCGTGTGGGTGTCCCCACTTCA | 6310
